Assay results from different studies.
Compare with care: the assays were run in different laboratories. ± marks the error that the study gave.

| Structure (SMILES) | cell line | assay | test system | conditions | measurement | result |
| --- | --- | --- | --- | --- | --- | --- |
| CCCC/C=C\CCCCCCCC(=O)OC | Caco-2 | WST-1 |  | 50 and 500 µM, 24 h | cytotoxicity | not toxic |
| O=C(O[C@@H]1Cc2c(O)cc(O)cc2O[C@@H]1c1cc(O)c(O)c(O)c1)c1cc(O)c(O)c(O)c1 | Caco-2 |  |  | concentration not given, 3 h | cellular accumulation | 488 ± 33 pmol/well |
| Cc1ccc(C)c(-c2csc(NS(=O)(=O)c3ccc(C(=O)N4CCCCC4)cc3)n2)c1 | THP-1 | cell growth or viability, MTT |  | 5 µM, 18 h | viability | < 80% |
| C=C(C[C@H](N)C(=O)O)C(=O)Nc1ccc(F)cc1 | MCF-10A | necrosis |  | 24 h | EC50 | > 316 µM |
| CC/C(=C\c1ccc(OCC(=O)NC(Cc2ccccc2)C(=O)N2CCOCC2)cc1)[N+](=O)[O-] (centres unmarked) | THP-1 | MTT | RPMI-1640 with 10% FBS | 72 h, pH 7.4 | CC50 | 28.7 µM |
| COc1ccc(-c2oc3cc(O)cc(O)c3c(=O)c2O)cc1 | human infant foreskin fibroblasts | trypan blue exclusion |  | 17 µM, 72 h, 10% FBS | viability | 83.9 ± 1.31% |
| O=C(c1cc(Cc2n[nH]c(=O)c3ccccc23)ccc1F)N1CCN(C(=O)C2CC2)CC1 | MDA-MB-231 | necrosis |  | 24 h | EC50 | 61.7 µM |
| CN1CCN2CCN(CC1)CCN(Cc1ccccc1)CC2 | THP-1 | cytotoxicity |  |  | IC90 | > 20 µM |
| COc1cc2c(Nc3ccc(Br)cc3F)ncnc2cc1OCC1CCN(C)CC1 | hiPSC-derived cardiomyocytes |  |  | 72 h | concentration of contraction prolongation | ≥ 3.7 µM |
| C=C(C[C@H](N)C(=O)O)C(=O)Nc1ccccc1 | MCF-10A | necrosis |  | 24 h | EC50 | > 316 µM |
| Cc1ccc(-c2oc3cc(O)cc(O)c3c(=O)c2O)cc1 | human infant foreskin fibroblasts | trypan blue exclusion |  | 12 µM, 72 h, 10% FBS | viability | 65 ± 4.12% |
| C=C(C[C@H](N)C(=O)O)C(=O)N1CCCCC1 | MCF-10A | necrosis |  | 24 h | EC50 | > 316 µM |
| O=c1c(O)c(-c2ccc(I)cc2)oc2cc(O)cc(O)c12 | human infant foreskin fibroblasts | trypan blue exclusion |  | 6 µM, 72 h, 10% FBS | viability | 70.2 ± 2.7% |
| C=C(C[C@@H]1CCOc2ccc(OC)cc21)c1ccccc1 | RAW264.7 | cytotoxicity, CCK-8 |  | 24 h | IC50 | 178 µM |
| O=c1c(O)c(-c2cccc(-c3ccccc3)c2)oc2cc(O)cc(O)c12 | human infant foreskin fibroblasts | trypan blue exclusion |  | 6 µM, 72 h, 10% FBS | viability | 53.1 ± 9.54% |
| Cc1ccc(-c2cc(C(F)(F)F)nn2-c2ccc(S(N)(=O)=O)cc2)cc1 | RAW264.7 | MTT |  | 20 µM, 24 h, 10% FBS, with: LPS | viability | 93 ± 1.44% |

| Structure (SMILES) | cell line | assay | test system | conditions | measurement | result |
| --- | --- | --- | --- | --- | --- | --- |
| C=C(C[C@H](N)C(=O)O)C(=O)NCc1ccccc1 | MDA-MB-231 | necrosis |  | 24 h | EC50 | > 316 µM |
| CO[C@@H]1[C@H](O)[C@@H](COP(=O)(O)OP(=O)([O-])OP(=O)(O)OP(=O)(O)OC[C@H]2O[C@@H](n3cnc4c(=O)[nH]c(N)nc43)[C@H](O)[C@@H]2O)O[C@H]1n1c[n+](C)c2c(O)nc(N)nc21 | human immature dendritic cells | translation, refers to: luciferase |  |  | time of maximal expression | 5.3 ± 0.05 h |
| C=C(C[C@H](N)C(=O)O)C(=O)NCc1ccc(F)cc1 | MCF-10A | necrosis |  | 24 h | EC50 | > 316 µM |
| NCCC(=O)N[C@@H](Cc1cnc[nH]1)C(=O)O | SKPT |  |  | 10 µM, 15 min, basolateral uptake, apical pH 6.0 | pH of maximal uptake | 6.5 |
| C#C[C@]1(CO)O[C@@H](n2cnc3c(N)nc(F)nc32)C[C@@H]1O | MDCK-II monolayer |  |  | 25 µM, with: EDTA | Papp apical to basolateral | 1.82 ± 0.73 ×10⁻⁶ cm/s |
| O=C1CN(c2nc(=O)c3cc(C(F)(F)F)cc([N+](=O)[O-])c3s2)CCN1C1CCCC1 | MDCK-MDR1 |  |  | 60 (unit not given), pH 7.4 | Papp A to B | > 5.5 ×10⁻⁶ cm/s |
| C=C(C[C@H](N)C(=O)O)C(N)=O | MCF-10A | necrosis |  | 24 h | EC50 | > 316 µM |
| C=C(C[C@@H]1CCSc2ccc(F)cc21)c1ccccc1 | RAW264.7 | cytotoxicity, CCK-8 |  | 24 h | IC50 | 80.4 µM |
| O=c1c(O)c(-c2ccc(O)cc2)oc2cc(O)cc(O)c12 | human infant foreskin fibroblasts | trypan blue exclusion |  | 36 µM, 72 h, 10% FBS | viability | 106 ± 5.66% |
| C=C(C[C@H](N)C(=O)O)C(=O)Nc1ccc(Cl)cc1 | MDA-MB-231 | necrosis |  | 24 h | EC50 | > 316 µM |
| CCCCCCCCCCCCCCCC[N+](C)(C)C | HEK293-A | whole-cell patch clamp |  |  | membrane partition constant | 55000 M⁻¹ |
| C=C(C[C@@H]1CCSc2ccccc21)c1ccc(Cl)cc1 | RAW264.7 | cytotoxicity, CCK-8 |  | 24 h | IC50 | 190 µM |
| CN1CCN([C@@H](c2ccccc2)c2ccc(Cl)cc2)CC1 | Huh-7.5.1 | cell growth or viability, ATP luminescence |  |  | CC50 | 33 µM |
| CCCCCCCCCCCC[N+](C)(C)C | horse erythrocytes | haemolysis |  |  | CC50 | 714 µM |
| C=C(C[C@@H]1CCOc2ccccc21)c1c(C)cc(C)cc1C | RAW264.7 | cytotoxicity, CCK-8 |  | 24 h | IC50 | 74.1 µM |
| CCCCCCCCCCCCCCCCCCOC(=O)c1ccccc1-c1c2ccc(=[N+](CC)CC)cc-2oc2cc(N(CC)CC)ccc12.[Cl-] | HEK293-A | whole-cell patch clamp |  |  | membrane partition constant | 39000 M⁻¹ |
